# Results of several laboratories.
# Each numbered part is a random draw from the data of one study; scales do not carry over between parts.

# Study 1 — technique: RNA Bind-n-Seq; molecule type: RNA; medium: in vitro; tested at: 200 nM; setting: whole 134-nt RNA, ends assumed; together with: 150 mM LiCl; baseline: input library; direction: higher = stronger binding; each molecule: 7-deaza-guanosine replaces G
# Target: Fragile X messenger ribonucleoprotein 1, C-terminal low-complexity region (Fmr1, Mus musculus, UniProt P35922)
Oligonucleotide,log2 enrichment
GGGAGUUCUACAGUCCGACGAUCAAGUCCUGUGCUACACAUCGUAUGUACCGAAUCGGGCCCCGGGGCCCCGGGCCCCGGAAAGUAUUAUGUUACGCCGUUCGGAUCUGCACUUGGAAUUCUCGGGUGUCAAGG,-0.543
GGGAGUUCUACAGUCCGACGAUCUGGGAGGUGGAUUUUGUUUAUUUUUUUAGCUCAUUUCCAGGGGUGGGAAUUUUUUUUUAAUAUGUGUCAUGAAUACAGUUGUUUUUGAAAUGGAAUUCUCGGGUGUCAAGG,-0.14
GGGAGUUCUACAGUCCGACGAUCAAGUCCUGUGCUACACAUCGUAUGUACCGAAUCGGUUUUUUUGGUUUUUUUGGAGGAAAGUAUUAUGUUACGCCGUUCGGAUCUGCACUUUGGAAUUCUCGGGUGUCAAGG,-1.52
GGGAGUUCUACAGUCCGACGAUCAGUCCUGUGCUACACAUCGUAUGUACCGAAUCGGGAAAAAGGGAAAAAGGAAAAAGGAAAGUAUUAUGUUACGCCGUUCGGAUCUGCACUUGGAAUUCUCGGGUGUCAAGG,-1.38
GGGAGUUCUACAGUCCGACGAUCCCUGUGCUACACAUCGUAUGUACCGAAUCGGGUUUUUUUGGGAAAAAGGGUUUUUUUGGGAAAGUAUUAUGUUACGCCGUUCGGAUCUGCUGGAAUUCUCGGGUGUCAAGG,-2.7

# Study 2 — technique: protein binding microarray; molecule type: double-stranded DNA, one strand shown; medium: in vitro; tested at: not given; baseline: not given; direction: higher = stronger binding
# Target: Histone acetyltransferase KAT6A, winged helix 2, GST fusion (KAT6A, Homo sapiens, UniProt Q92794, residues 85-181)
# Setting: 8-mer, flanks averaged, mean of 2 arrays, mostly near background
# Target sequence (chain): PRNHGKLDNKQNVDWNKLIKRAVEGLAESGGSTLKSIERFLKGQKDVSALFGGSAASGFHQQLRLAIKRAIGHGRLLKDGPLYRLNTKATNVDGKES
Oligonucleotide,E-score
CAAGGCGG,0.0394
AGAGGTAT,-0.0358
CCCGGCTC,0.242
AGGAGACA,0.0285
ATTGTGGG,0.00741

# Further values, each from its own experiment
Molecule,target,test,test system,setting,how to read,quantity,value
"PhoQ, residues 284 288 289 292 302 303 TNSAEL","PhoP, residues 12 14 15 18 19 NHTVL (Escherichia coli, UniProt P23836)","Sort-seq, refers to: YFP reporter",E. coli,"PhoQ-PhoP variant library, together with: 10 µM Mg2+","baseline: high Mg2+ state, higher = stronger signaling",fold induction,1.05
LQVDDDSGDPLNLVKA,human cyclin D2-Cln2 fusion,"yeast growth, competitive growth deep sequencing","peptide, Saccharomyces cerevisiae",peptide tiling library,direction not given,enrichment score,-1.17

# A few entries again (study 1):
Oligonucleotide,log2 enrichment
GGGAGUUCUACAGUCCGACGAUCCCUGUGCUACACAUCGUAUGUACCGAAUCGGGUUUUUUUGGGAAAAAGGGUUUUUUUGGGAAAGUAUUAUGUUACGCCGUUCGGAUCUGCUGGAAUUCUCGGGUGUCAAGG,-2.7
